Published values gathered from unrelated publications.
Compare with care: the assays were run in different laboratories. ± marks the error that the study gave.

COc1ccc(N(C)c2nc(C)nc3ccccc23)cc1OCCCC(=O)NO has an IC50 of 5.87 µM (uveal melanoma cell lines; cell viability; average over cell lines).
Cc1nc(Nc2ncc(C(=O)Nc3c(C)cccc3Cl)s2)cc(N2CC[C@H](O)C2)n1 has an IC50 of over 10 µM (NAMALWA CSN/70; cell proliferation, CellTiter-Glo; 72 h).
With N[C@@H](CC(=O)N1CCN(C(c2ccc(F)cc2)c2ccc(F)cc2)CC1)C(=O)N1Cc2ccccc2C1 the IC50 was 0.9 µM (NOMO-1; cell viability, CellTiter-Glo; day 5).
CS(=O)(=O)CCNCc1ccc(-c2ccc3ncnc(Nc4ccc(OCc5cccc(F)c5)c(Cl)c4)c3c2)o1 has an IC50 of over 1 µM (Ba/F3 expressing HER2 L755P; cell growth, inhibitor, CellTiter-Glo).
For CC1(C)CC[C@]2(NC(=O)C(C)(F)F)CC[C@]3(C)[C@H](C(=O)C=C4[C@@]5(C)C=C(C#N)C(=O)C(C)(C)[C@@H]5CC[C@]43C)[C@@H]2C1, the IC50 was 0.198 µM (THP1-ASC-GFP cells; ASC speck formation, high-content imaging; 1 h pretreatment, with: LPS priming and nigericin).
The inhibition of C[C@@H]1[C@H]2[C@H](O[C@@H]3O[C@H](CO)[C@@H](O)[C@H](O)[C@H]3O)OC=C(C(=O)O)[C@H]2C[C@@H]1O is reported as 41.8% (THP-1; pyroptotic LDH release; 2 µM, 40 min, with: LPS then nigericin).
With c1ccc(C[n+]2cn(COC3CCCCC3)c3ccccc32)cc1 the IC50 was 45 ± 6.3 µM (H1299 (p53 null); cell viability, MTT; 72 h).
Cn1cc(-c2ccc(-c3cncc(Cl)c3N3CCC4(CCNC4=O)CC3)cc2)cn1 — result for “fold change in expression”: 3.2 (COLO 205; microarray, refers to: NRP1; concentration not given, 2 h, gene set Neuropilin-1; baseline: untreated cells).
CCN1CCN(c2ccc(Nc3cc(N(C)C(=O)Nc4c(Cl)c(OC)cc(OC)c4Cl)ncn3)cc2)CC1 gave an IC50 of 0.0038 ± 0.0008 µM (HUVEC; ERK phosphorylation, inhibitor, refers to: phospho-ERK1/2; with: bFGF).
With C[C@H]1Oc2cc(cnc2N)-c2c(nn(C)c2C#N)CN(C)C(=O)c2ccc(F)cc21 the IC50 was 0.248 µM (Ba/F3 ETV6-TRKB; cell viability).
CC(C)[C@@H]1NC(=O)/C(=C/c2cnc[nH]2)NC1=O has an IC50 of over 15 µM (NCI-H446/EP; cell growth, SRB).
C=C1C[C@](OC)([C@H](OCOC/C=C/B2OC(CC)(CC)C(CC)(CC)O2)C(=O)NC[C@@H]2C[C@@H](OC)C(C)(C)[C@@H](C[C@@H](COC)OC)O2)O[C@H](C)[C@@H]1C has an IC50 of 0.0038 ± 0.0002 µM (B16; cell viability, sulforhodamine B; 72 h, 37 °C, without H2O2).
For C/C=C1\NC(=O)[C@H]2CSSCC/C=C/[C@H](CC(=O)N[C@H](C(C)C)C(=O)N2)OC(=O)[C@H](C(C)C)NC1=O, the IC50 was 0.00072 µM (uveal melanoma cell lines; cell viability; average over cell lines).
COC[C@@H](C)NC1CCC(Nc2cc(-c3cccc(NCC4(C#N)CCOCC4)n3)c(Cl)cn2)CC1 (stereo partly shown) has an IC50 of 0.169 µM (patient-derived organoid sample D rAsc; organoid viability; human; 96 h).
CCOc1cc2ncc(C#N)c(Nc3ccc(OCc4ccccn4)c(Cl)c3)c2cc1NC(=O)/C=C/CN(C)C gave an IC50 of 0.0125 µM (Ba/F3 expressing HER2 L755P; cell growth, inhibitor, CellTiter-Glo).
The IC50 of O=C(O)COCC(=O)O is reported as 10100 µM (hepatocytes, iPSC-derived, line L2; cell viability, RealTime-Glo MT; 24 h, differentiation day 23).
With CC1(C)COc2ccc(F)cc2CN2c3nc4c(cnn4cc3OC[C@H]2C(F)F)C(=O)N1 the IC50 was 0.0141 µM (Ba/F3 EML4-ALK variant 1 L1196Q; cell viability).
CC(=O)c1c(O)c(C)c(O)c2c1OC1=CC(=O)C(C(C)=O)C(=O)C12C (single isomer, unassigned; (+)) has an IC50 of 8 µM (hepatocytes, iPSC-derived, line L2; cell viability; 48 h).
With COc1ccc(F)cc1C(=O)NCc1ccc(-c2nn([C@@H](C)C(F)(F)F)c(N)c2C(N)=O)cc1 the IC50 was 0.0026 ± 0.0018 µM (Rec1; refers to: MIP-1β/CCL4; 24 h).
With CCCCN1C[C@H](O)[C@@H](O)[C@@H](O)[C@H]1CO the IC50 was 17 µM (sample BB patient fibroblasts; Gb3 level lowering, LC-MS/MS, refers to: Gb3 d18:1/18:0; 216 h).
With CN(Cc1ccc(C(C)(C)C)cc1)Cc1cccc2ccccc12 the inhibition was 14.1% (THP-1; pyroptotic LDH release; 2 µM, 40 min, with: LPS then nigericin).
For O=[N+]([O-])c1ccc(Sc2cccc[n+]2[O-])c2nonc12, the IC50 was 1.9 µM (uveal melanoma cell lines; cell viability; average over cell lines).

Repeated from above:
The inhibition of C[C@@H]1[C@H]2[C@H](O[C@@H]3O[C@H](CO)[C@@H](O)[C@H](O)[C@H]3O)OC=C(C(=O)O)[C@H]2C[C@@H]1O is reported as 41.8% (THP-1; pyroptotic LDH release; 2 µM, 40 min, with: LPS then nigericin).
With c1ccc(C[n+]2cn(COC3CCCCC3)c3ccccc32)cc1 the IC50 was 45 ± 6.3 µM (H1299 (p53 null); cell viability, MTT; 72 h).
